# Measured values gathered from unrelated publications.
# Numbers after ± are the reported error.
# Method: steady-state kinetics
# B1: ALDH4A1 S352A (Homo sapiens, UniProt P30038); chain TGAGLRWKHTSSLKVANEPVLAFTQGSPERDALQKALKDLKGRMEAIPCVVGDEEVWTSDVQYQVSPFNHGHKVAKFCYADKSLLNKAIEAALAARKEWDLKPIADRAQIFLKAADMLSGPRRAEILAKTMVGQGKTVIQAEIDAAAELIDFFRFNAKYAVELEGQQPISVPPSTNSTVYRGLEGFVAAISPFNFTAIGGNLAGAPALMGNVVLWKPSDTAMLASYAVYRILREAGLPPNIIQFVPADGPLFGDTVTSSEHLCGINFTGSVPTFKHLWKQVAQNLDRFHTFPRLAGECGGKNFHFVHRSADVESVVSGTLRSAFEYGGQKCSACARLYVPHSLWPQIKGRLLEEHSRIKVGDPAEDFGTFFSAVIDAKSFARIKKWLEHARSSPSLTILAGGKCDDSVGYFVEPCIVESKDPQEPIMKEEIFGPVLSVYVYPDDKYKETLQLVDSTTSYGLTGAVFSQDKDVVQEATKVLRNAAGNFYINDKSTGSIVGQQPFGGARASGTNDKPGGPHYILRWTSPQVIKETHKPLGDWSYAYMQ
# B2: onr (Enterobacter cloacae, UniProt P71278); chain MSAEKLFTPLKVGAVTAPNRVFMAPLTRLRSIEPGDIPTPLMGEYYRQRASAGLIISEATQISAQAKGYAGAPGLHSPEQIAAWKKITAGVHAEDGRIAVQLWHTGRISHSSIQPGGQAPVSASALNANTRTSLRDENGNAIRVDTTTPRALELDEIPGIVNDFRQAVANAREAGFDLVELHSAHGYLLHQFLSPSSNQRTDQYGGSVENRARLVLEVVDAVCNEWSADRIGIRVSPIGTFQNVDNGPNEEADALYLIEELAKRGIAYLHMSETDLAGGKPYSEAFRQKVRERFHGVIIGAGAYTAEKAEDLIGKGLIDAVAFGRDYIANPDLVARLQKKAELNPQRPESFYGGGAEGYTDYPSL
# B3: Nudt8 (Mus musculus, UniProt Q9CR24); chain MLPDGLSAEDEQRCRQLLARTTARLRSRPAAAAVLVPLCLVRGVPALLYTLRSSRLVGRHKGEVSFPGGKCDPDDQDVIHTALRETQEELGLEVPKEHVWGVLQPVYDREKATIVPVLANVGPLDLQSLRPNLEEVDEVFEMSLAHLLQTQNQGYTHFCQGGHFSYTLPVFLHGPHRVWGLTAVITELTLKLLAPGFYQPSLAVPELPRG
# B4: LYS1 C205S/D319A (Saccharomyces cerevisiae, UniProt P38998); chain MAAVTLHLRAETKPLEARAALTPTTVKKLIAKGFKIYVEDSPQSTFNINEYRQAGAIIVPAGSWKTAPRDRIIIGLKEMPETDTFPLVHEHIQFAHCYKDQAGWQNVLMRFIKGHGTLYDLEFLENDQGRRVAAFGFYAGFAGAALGVRDWAFKQTHSDDEDLPAVSPYPNEKALVKDVTKDYKEALATGARKPTVLIIGALGRSGSGAIDLLHKVGIPDANILKWDIKETSRGGPFDEIPQADIFINCIYLSKPIAPFTNMEKLNNPNRRLRTVVDVSADTTNPHNPIPIYTVATVFNKPTVLVPTTAGPKLSVISIAHLPSLLPREASEFFSHDLLPSLELLPQRKTAPVWVRAKKLFDRHCARVKRSSRL
# B5: Tcur_2987 W263S (Thermomonospora curvata, UniProt D1A807); chain ACSEERAAGARPSATQTTGTATEPFHGPHQAGIATPPQAHAVFLGLDLRKGTGRKELGRLMRLLTDDARRLTQGRPALADPEPDLAPLPSRLTFTFGFGPGLFKAAGLEKQRPEGLRPLPPFKVDRLEDRWSGGDLLVQICCDDPITLAHALRMTVKDARAFTRVRWVQRGFRRSPGVQSSGATQRNLMGQLDGTVNPVPGTADFDQAVWVQDGPEWLRGGTTLVLRRIRMELEKSDEADPAGKEFAVGRRLTSGAPLTGRHEHDEPDFDAVDSAGFPVIAENAHIRLAHVDSPRLRMLRRPYNYDEGLTADGRSDAGLLFAAYQADIDRQFIPVQRRLDEGGDLLNLWTTPIGSAVFAIPPGCDENGWIGQGLLG
# B6: PRP43 R159A (Saccharomyces cerevisiae, UniProt P53131); chain MGSKRRFSSEHPDPVETSIPEQAAEIAEELSKQHPLPSEEPLVHHDAGEFKGLQRHHTSAEEAQKLEDGKINPFTGREFTPKYVDILKIRRELPVHAQRDEFLKLYQNNQIMVFVGETGSGKTTQIPQFVLFDEMPHLENTQVACTQPRRVAAMSVAQAVAEEMDVKLGEEVGYSIRFENKTSNKTILKYMTDGMLLREAMEDHDLSRYSCIILDEAHERTLATDILMGLLKQVVKRRPDLKIIIMSATLDAEKFQRYFNDAPLLAVPGRTYPVELYYTPEFQRDYLDSAIRTVLQIHATEEAGDILLFLTGEDEIEDAVRKISLEGDQLVREEGCGPLSVYPLYGSLPPHQQQRIFEPAPESHNGRPGRKVVISTNIAETSLTIDGIVYVVDPGFSKQKVYNPRIRVESLLVSPISKASAQQRAGRAGRTRPGKCFRLYTEEAFQKELIEQSYPEILRSNLSSTVLELKKLGIDDLVHFDFMDPPAPETMMRALEELNYLACLDDEGNLTPLGRLASQFPLDPMLAVMLIGSFEFQCSQEILTIVAMLSVPNVFIRPTKDKKRADDAKNIFAHPDGDHITLLNVYHAFKSDEAYEYGIHKWCRDHYLNYRSLSAADNIRSQLERLMNRYNLELNTTDYESPKYFDNIRKALASGFFMQVAKKRSGAKGYITVKDNQDVLIHPSTVLGHDAEWVIYNEFVLTSKNYIRTVTSVRPEWLIEIAPAYYDLSNFQKGDVKLSLERIKEKVDRLNELKQGKNKKKSKHSKK
# B7: enzyme (UniProt A0A2T5C445); chain MKSKQLNTDLFKVQAKQQIRLKNYDPASCNGFANRKEAEHQLKQDIKELADLQYQLYAENKRSVLIVFQAMDAAGKDGSIRHVFSGLNPQGCKVYSFKSPSANELDHDYLWRHYNKLPPRGEIGIFNRSHYENVLITRVHPEFLLNENLPDVHATNDITTEFWERRYRQIRDFEQTLTENGTTIIKFFLHLSKDEQKKRFMERIRKPAKNWKFSSADIRERQYWDDYQHAYEQAMRATSTEEAPWYIIPADNKWFTHVAIGNIIVETLQQMNIQMPEISSEEKDALKKAKKKLQNE
# B8: pol D141A/E143A (Thermococcus kodakarensis, UniProt P77933); chain 1 MILDTDYITEDGKPVIRIFKKENGEFKIEYDRTFEPYFYALLKDDSAIEEVKKITAERHGTVVTVKRVEKVQKKFLGRPVEVWKLYFTHPQDVPAIRDKIREHPAVIDIYEYDIPFAKRYLIDKGLVPMEGDEELKMLAFAIATLYHEGEEFAEGPILMISYADEEGARVITWKNVDLPYVDVVSTEREMIKRFLRVVKEKDPDVLITYNGDNFDFAYLKKRCEKLGINFALGRDGSEPKIQRMGDRFAVEVKGRIHFDLYPVIRRTINLPTYTLEAVYEAVFGQPKEKVYAEEITTAWETGENLERVARYSMEDAKVTYELGKEFLPMEAQLSRLIGQSLWDVSRSSTGNLVEWFLLRKAYERNELAPNKPDEKELARRRQSYEGGYVKEPERGLWENIVYLDFR; chain 2 SLYPSIIITHNVSPDTLNREGCKEYDVAPQVGHRFCKDFPGFIPSLLGDLLEERQKIKKKMKATIDPIERKLLDYRQRAIKILAN; chain 3 NSYYGYYGYARARWYCKECAESVTAWGREYITMTIKEIEEKYGFKVIYSDTDGFFATIPGADAETVKKKAMEFLKYINAKLPGALELEYEGFYKRGFFVTKKKYAVIDEEGKITTRGLEIVRRDWSEIAKETQARVLEALLKDGDVEKAVRIVKEVTEKLSKYEVPPEKLVIHEQITRDLKDYKATGPHVAVAKRLAARGVKIRPGTVISYIVLKGSGRIGDRAIPFDEFDPTKHKYDAEYYIENQVLPAVERILRAFGYRKEDLRYQKTRQVGLSAWLKPKGT
# UniProt Q48796, sequence (whole entry, looked up): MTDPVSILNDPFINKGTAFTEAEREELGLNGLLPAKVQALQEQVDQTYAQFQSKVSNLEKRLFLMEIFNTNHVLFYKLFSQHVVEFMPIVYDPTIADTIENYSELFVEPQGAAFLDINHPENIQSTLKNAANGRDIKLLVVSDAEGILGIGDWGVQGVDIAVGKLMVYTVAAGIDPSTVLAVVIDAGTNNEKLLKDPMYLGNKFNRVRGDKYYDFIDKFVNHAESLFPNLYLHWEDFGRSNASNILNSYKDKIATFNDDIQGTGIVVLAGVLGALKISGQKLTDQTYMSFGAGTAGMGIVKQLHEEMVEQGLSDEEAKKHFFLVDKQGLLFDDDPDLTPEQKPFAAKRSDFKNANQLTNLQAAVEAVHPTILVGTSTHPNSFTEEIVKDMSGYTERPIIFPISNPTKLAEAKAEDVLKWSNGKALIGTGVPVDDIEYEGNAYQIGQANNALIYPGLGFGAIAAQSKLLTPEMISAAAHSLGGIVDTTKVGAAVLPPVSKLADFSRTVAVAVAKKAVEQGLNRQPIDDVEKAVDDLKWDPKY
# UniProt P49419, sequence (whole entry, looked up): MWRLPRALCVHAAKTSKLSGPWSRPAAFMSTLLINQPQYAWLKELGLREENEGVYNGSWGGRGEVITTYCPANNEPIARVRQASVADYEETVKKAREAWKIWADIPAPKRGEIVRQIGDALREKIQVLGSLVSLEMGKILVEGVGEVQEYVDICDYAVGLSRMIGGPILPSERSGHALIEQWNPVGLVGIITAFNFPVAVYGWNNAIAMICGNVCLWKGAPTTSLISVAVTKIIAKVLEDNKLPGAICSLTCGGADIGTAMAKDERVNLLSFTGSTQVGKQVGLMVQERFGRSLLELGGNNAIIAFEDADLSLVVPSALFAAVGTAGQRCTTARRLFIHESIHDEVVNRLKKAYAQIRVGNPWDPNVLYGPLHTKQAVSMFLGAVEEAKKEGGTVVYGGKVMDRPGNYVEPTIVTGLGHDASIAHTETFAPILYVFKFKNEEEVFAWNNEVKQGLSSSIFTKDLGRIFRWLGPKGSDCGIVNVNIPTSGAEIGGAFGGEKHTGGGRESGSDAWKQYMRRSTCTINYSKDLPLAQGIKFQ
Substance,substrate,setting,kcat
"mleA (Oenococcus oeni, UniProt Q48796)",O=C(O)C[C@H](O)C(=O)O,"pH 6, 45 °C",234 ± 7.33 s⁻¹
B1 (ALDH4A1 S352A),O=C(O)[C@@H]1CCC=N1,"pH 7, 20 °C, value for L-P5C, with: NAD+",5 s⁻¹
B2 (onr),CC1=CC(=O)N(c2ccccc2)C1=O,"pH 7, 25 °C, apparent, anaerobic, with: NADPH 100 µM",7.65 ± 0.13 s⁻¹
"alanine aminopeptidase (Neisseria meningitidis, UniProt Q9JYV4)",NC(=O)Cc1cc(=O)oc2cc(NC(=O)[C@@H](N)CC3CCCCC3)ccc12,"pH 7.5, 37 °C",3.84 ± 0.04 s⁻¹
B3 (Nudt8),CC(C)(COP(=O)(O)OP(=O)(O)OC[C@H]1O[C@@H](n2cnc3c(N)ncnc32)[C@H](O)[C@@H]1OP(=O)(O)O)[C@@H](O)C(=O)NCCC(=O)NCCSC(=O)CCC(=O)O,"pH 8.5, with: 2 mM Mn2+",3.12 ± 0.233 s⁻¹
B4 (LYS1 C205S/D319A),O=C(O)CCC(=O)C(=O)O,"pH 7.2, 25 °C, with: NADH and Lys",35 ± 5 s⁻¹
B5 (Tcur_2987 W263S),Nc1c(S(=O)(=O)O)cc(Nc2cccc(S(=O)(=O)CCOS(=O)(=O)O)c2)c2c1C(=O)c1ccccc1C2=O,"pH 3, sigmoidal kinetics, with: H2O2 1 mM",51 ± 1 s⁻¹
"enzyme (Mortierella alpina, UniProt U5Y3C6)",CCCCCCCC/C=C\CCCCCCCC(=O)SCCNC(=O)CCNC(=O)[C@H](O)C(C)(C)COP(=O)(O)OP(=O)(O)OC[C@H]1O[C@@H](n2cnc3c(N)ncnc32)[C@H](O)[C@@H]1OP(=O)(O)O,"pH 7.5, 28 °C",0.015 ± 0.000667 s⁻¹
B6 (PRP43 R159A),Nc1ccn([C@@H]2O[C@H](COP(=O)(O)OP(=O)(O)OP(=O)(O)O)[C@@H](O)[C@H]2O)c(=O)n1,"pH 8, KCl 100 mM, without Pfa1, with: polyA 0.2 mM, magnesium acetate 2.5 mM",6.1 ± 0.3 s⁻¹
"protein (Streptomyces toyocaensis, UniProt Q8KLK7)",CC(C)(COP(=O)(O)OP(=O)(O)OC[C@H]1O[C@@H](n2cnc3c(N)ncnc32)[C@H](O)[C@@H]1OP(=O)(O)O)[C@@H](O)C(=O)NCCC(=O)NCCSC(=O)Cc1cc(O)cc(O)c1,"pH 7.5, 24 °C, with: O2",0.15 ± 0.02 s⁻¹
B7 (enzyme),Nc1nc2c(ncn2[C@@H]2O[C@H](COP(=O)(O)O)[C@@H](O)[C@H]2O)c(=O)[nH]1,"pH 8, 30 °C",49 ± 18 s⁻¹
B8 (pol D141A/E143A),Nc1nc2c(ncn2[C@H]2C[C@H](O)[C@@H](COP(=O)(O)OP(=O)(O)OP(=O)(O)O)O2)c(=O)[nH]1,"pH 8, 55 °C",5.9 ± 0.1 s⁻¹
"ALDH7A1 (Homo sapiens, UniProt P49419)",N[C@@H](CCCC=O)C(=O)O,"pH 8, 20 °C, with: NAD+ 2.5 mM",2.18 ± 0.095 s⁻¹

# Excerpt of the above:
Substance,substrate,setting,kcat
B3 (Nudt8),CC(C)(COP(=O)(O)OP(=O)(O)OC[C@H]1O[C@@H](n2cnc3c(N)ncnc32)[C@H](O)[C@@H]1OP(=O)(O)O)[C@@H](O)C(=O)NCCC(=O)NCCSC(=O)CCC(=O)O,"pH 8.5, with: 2 mM Mn2+",3.12 ± 0.233 s⁻¹
